Results from different studies.
Each line is one published result; not all experiments were run side by side. Several values in a cell are separate wells, animals, samples, runs or records. Numbers after ± are the reported error. ≈ marks a conversion by molar mass, not a printed value.

Compound	organism	test	system	setting	scale	endpoint	value
COC(=O)[C@H](Cc1ccc(O)cc1)NCc1cc2ccccc2nc1SC	Pseudomonas aeruginosa	–	–	128 µg/mL, together with: pentamidine 50 µM	reference: control	growth	80.4%
Cc1nc(NCCCNc2ccnc3cc(Cl)ccc23)nc(-c2cccc([N+](=O)[O-])c2)c1C(=O)OC(C)C	feline herpesvirus	viral replication	CRFK	–	–	EC50	> 4 µM
Cc1c(CN(C)C(=O)/C=C/c2cnc3c(c2)CC(NC(=O)OC(C)(C)C)C(=O)N3)oc2ccccc12 (stereo not drawn)	Acinetobacter baumannii	broth microdilution	AR-0033	–	–	MIC	> 32 µg/mL
C[C@]12CC[C@@H]3c4ccc(O)cc4CC[C@H]3[C@@H]1CC[C@@H]2O	Arabidopsis thaliana	qRT-PCR, measured: RD29B	estradiol-inducible CLE5 line, seedlings	1 µM, β-estradiol induced, unit not given	reference: mock	mRNA level	39.4 and 35.7 and 36.9 and 24.8 and 28.7 and 32.9
COC(=O)[C@H](Cc1c[nH]c2ccccc12)NCc1cc2ccccc2nc1OC	Pseudomonas aeruginosa	–	–	32 µg/mL, together with: pentamidine 50 µM	reference: control	growth	83.3%
O=c1cc2ccocc-2o1	Arabidopsis thaliana	–	wild type, seedlings	0.3 µM	–	hypocotyl length	13.2 mm
COC[C@H]1O[C@@H]2O[C@H]3[C@H](OC)[C@@H](OC)[C@@H](O[C@H]4[C@H](OC)[C@@H](OC)[C@@H](O[C@H]5[C@H](OC)[C@@H](OC)[C@@H](O[C@H]6[C@H](OC)[C@@H](OC)[C@@H](O[C@H]7[C@H](OC)[C@@H](OC)[C@@H](O[C@H]8[C@H](OC)[C@@H](OC)[C@@H](O[C@H]1[C@H](OC)[C@H]2OC)O[C@@H]8COC)O[C@@H]7COC)O[C@@H]6COC)O[C@@H]5COC)O[C@@H]4COC)O[C@@H]3COC	Escherichia coli	LuxR reporter, agonist	DH5α sensor strain	1 µM	–	bioluminescence	733 ± 41 RLU
C=C[C@]1(C)C[C@@H](OC(=O)CSCCN(CC)CC)[C@]2(C)[C@H](C)CC[C@]3(CCC(=O)[C@H]32)[C@@H](C)[C@@H]1O	Mycoplasma gallisepticum	–	infected chickens, lung	intramuscular, 40 mg/kg	–	lung mycoplasma count	3.69 log10 CFU/mL and 3.34 log10 CFU/mL and 2 log10 CFU/mL and 3.78 log10 CFU/mL and 3.74 log10 CFU/mL and 3.73 log10 CFU/mL
CC1=CC(=O)CC(C)(C)[C@@]1(O)/C=C/C(C)=C\C(=O)O	Arabidopsis thaliana	–	Col-0 wild type, seeds	1 µM	–	number of germinated seeds	9 and 7 and 6
CN1CCN(CCNCc2cc3cc(-c4ccccc4)ccc3nc2SCc2ccccc2)CC1	Acinetobacter baumannii	NADH-driven proton pumping, ACMA quenching	inverted membrane vesicles	32 µg/mL	–	inhibition	95%
COC(=O)[C@@H](CCSC)NCc1cc2ccccc2nc1SC	Pseudomonas aeruginosa	–	–	128 µg/mL, together with: pentamidine 100 µM	reference: control	growth	75.9%
COc1cc2cc(CNCCC3CCN(C4CCCC4)CC3)c(SCc3ccccc3)nc2c(OC)c1OC	Acinetobacter baumannii	NADH-driven proton pumping, ACMA quenching	inverted membrane vesicles	32 µg/mL	–	inhibition	78%
Cc1nc2[nH]c(=O)n(O)c(=O)c2s1	Echinochloa crus-galli	glasshouse pot	–	1500 g/ha, 21 days, pre-emergence	–	inhibition	9.5%
CN[C@H](CC(C)C)C(=O)N[C@H]1C(=O)N[C@@H](CC(N)=O)C(=O)N[C@H]2C(=O)N[C@H]3C(=O)N[C@H](C(=O)N[C@H](C(=O)O)c4cc(O)cc(O)c4-c4cc3ccc4O)[C@H](O)c3ccc(c(Cl)c3)Oc3cc2cc(c3O[C@@H]2O[C@H](CO)[C@@H](O)[C@H](O)[C@H]2O[C@H]2C[C@](C)(N)[C@H](O)[C@H](C)O2)Oc2ccc(cc2Cl)[C@H]1O	Enterococcus faecium	–	Enterococcus faecalis	40 strains	–	MIC50	0.5 µg/mL (≈ 0.345 µM)
COc1cc2c(cc1C(=O)Nc1ccc(C(C)(C)C#N)cc1)CCCCC2	Dengue virus 2	viral replication	HEK293	–	–	EC90	0.6 µM
CC(=O)Oc1ccccc1C(=O)Nc1ncc([N+](=O)[O-])s1	Cryptosporidium parvum	–	HCT-8	6 x EC90, 0 h	reference: DMSO control	parasite number	93.3% and 96.8% and 109% and 101%
CCc1nc2[nH]c(=O)n(O)c(=O)c2s1	Echinochloa crus-galli	glasshouse pot	–	750 g/ha, 21 days, pre-emergence	–	inhibition	15.7%
C=C[C@]1(C)C[C@@H](OC(=O)CS[C@@H]2C[C@H]3CC[C@@H](C2)N3C)[C@]2(C)[C@H](C)CC[C@]3(CCC(=O)[C@H]32)[C@@H](C)[C@@H]1O	Enterococcus faecium	agar dilution	vancomycin-intermediate	25 isolates	–	MIC90	> 128 µg/mL

Compound	organism	test	system	setting	scale	endpoint	value
C[C@@H]1[C@H](O)[C@@H](C)/C=C/C=C/C=C/C=C/C=C/C=C/C=C/[C@H](O[C@@H]2O[C@H](C)[C@@H](O)[C@H](N)[C@@H]2O)C[C@@H]2O[C@](O)(C[C@@H](O)C[C@@H](O)[C@H](O)CC[C@@H](O)C[C@@H](O)CC(=O)O[C@H]1C)C[C@H](O)[C@H]2C(=O)O	Aspergillus fumigatus	–	Af 293	1 × MIC, 12 h	–	viable cell reduction	40 to 45%
COc1cc(NC(=O)Cn2ccc3cc(F)c(-c4cnn(C)c4)cc32)cc(OC)c1OC	Plasmodium falciparum	luminescence	red blood cells, 3D7 Hyp1-Nluc	10 × EC50, 8 h	reference: DMSO	fold lysis	5 fold
N=C(N)c1ccc(OCc2ccc(Br)cc2COc2ccc(C(=N)N)cc2)cc1	Escherichia coli	checkerboard	ATCC 25922	unit not given, together with: rifampicin	lower = stronger synergy	FICI	≤ 0.031
Cc1c2c(nn1C)CSCc1cc(n(C)n1)CSc1cc(c3ccccc3c1)OCCCc1c(C(=O)O)n(C)c3c-2c(Cl)ccc13	Staphylococcus aureus	broth microdilution	methicillin-susceptible clinical isolates	–	–	MIC90	12.5 µM
CC(C)n1ncc2c(C(=O)NCC3(C)CNC3)cc(C3CC3)nc21	Enterovirus D68	cytopathic effect	RD, US/IL/14-18952	150 nM	–	cell protection	1.22% and 0% and -0.541%
Cc1cc(OC(C)C)ccc1C(=O)C(C)(C)NC(=O)c1sccc1C	Botrytis cinerea	appressorium formation	B05.10	1 µg/mL	–	inhibition	99.6 ± 0.7%
CN[C@H](CC(C)C)C(=O)N[C@H]1C(=O)N[C@@H](CC(N)=O)C(=O)N[C@H]2C(=O)N[C@H]3C(=O)N[C@H](C(=O)N[C@H](C(=O)O)c4cc(O)cc(O)c4-c4cc3ccc4O)[C@H](O)c3ccc(c(Cl)c3)Oc3cc2cc(c3O[C@@H]2O[C@H](CO)[C@@H](O)[C@H](O)[C@H]2O[C@H]2C[C@](C)(N)[C@H](O)[C@H](C)O2)Oc2ccc(cc2Cl)[C@H]1O	Streptococcus pneumoniae	–	penicillin-resistant, 10 isolates	pH 5.5	–	MIC50	0.5 µg/mL (≈ 0.345 µM)
CCn1c(=O)c(-c2cc[nH]n2)cc2c(C)nc(N)nc21	Echovirus 11	viral replication, RT-qPCR	HeLa	concentration not given, 20 h	–	viral RNA level	decreased
O=C(N1CCc2ccccc21)n1ccnn1	Arabidopsis thaliana	–	atd14-1 mutant, seedlings	5 µM, continuous red light, together with: 1 µM (±)-GR24	–	hypocotyl length	1.72 mm and 4.31 mm and 2.33 mm and 2.29 mm and 3.01 mm and 2.41 mm
CC1(C)S[C@@H]2[C@H](NC(=O)[C@H](N)c3ccccc3)C(=O)N2[C@H]1C(=O)O	Enterococcus faecium	agar dilution	vancomycin-intermediate	25 isolates	–	MIC90	> 128 µg/mL
Cc1cnc(N2CC3(CCOCC3)C2)c(C(=O)Nc2ccc(C(=O)N3CCc4cc(C(=O)Nc5c(C)cccc5F)sc4-c4ccccc43)cc2)c1	human respiratory syncytial virus	viral replication, inhibitor	–	concentration not given, together with: 50% human serum	–	fold reduction of antiviral effect	11 fold
CC(=O)NC[C@H]1CN(c2ccc(N3CCOCC3)c(F)c2)C(=O)O1	Staphylococcus epidermidis	broth microdilution	methicillin-resistant isolates	–	–	MBC	32 µg/mL (≈ 94.9 µM)
N=C(N)c1ccc(OCCC(CCOc2ccc(C(=N)N)cc2)c2ccccc2)cc1 (stereo not drawn)	Escherichia coli	checkerboard	mcr-2 polymyxin-resistant	concentration not given, 20 h, together with: rifampicin	–	MIC of compound in combination	12.5 µg/mL
C[C@@H](O)[C@H]1C(=O)N2C(C(=O)O)=C(SCCN=CN)C[C@H]12	Acinetobacter baumannii	–	0403, female ICR mice, peritonitis, blood	dose not given	–	bacterial load	2.52 log CFU and 0 log CFU
COC(=O)N[C@H](C(=O)N1CCC[C@H]1c1ncc(-c2ccc(-c3ccc(-c4cnc([C@@H]5CCCN5C(=O)[C@@H](NC(=O)OC)C(C)C)[nH]4)cc3)cc2)[nH]1)C(C)C	Human alphaherpesvirus 1	multi-cycle viral growth	Vero	–	–	EC50	> 11 µM
Nc1nc(-c2ccccc2)nc2[nH]nc(Nc3ccc(C(F)(F)F)cc3)c12	coxsackievirus B3	–	31-1-93, NMRI mice, CVB3 chronic myocarditis	oral, 100 mg/kg twice daily, day 13, dosed days 0 to 6, score scale 0 to 7	direction not given	clinical score	0
CCOC(=O)c1c(C)nc(NCCCNc2ccnc3cc(Cl)ccc23)nc1-c1ccccc1	feline herpesvirus	viral replication	CRFK	–	–	EC50	> 4 µM
CC1=C[C@H](O/C=C2/C(=O)O[C@@H]3c4ccccc4C[C@H]23)OC1=O (racemic)	Arabidopsis thaliana	–	atd14-1 mutant	1 µM, racemate, compound alone	–	hypocotyl length	5.83 mm and 6.23 mm
